Experimental data collected from several papers.
Compare with care: the assays were run in different laboratories. Values joined by “and” are separate records of one study, mostly repeats; a detail may differ. ± gives the spread as reported.
Sequence of UniProt P51575 (whole entry, unmodified, looked up): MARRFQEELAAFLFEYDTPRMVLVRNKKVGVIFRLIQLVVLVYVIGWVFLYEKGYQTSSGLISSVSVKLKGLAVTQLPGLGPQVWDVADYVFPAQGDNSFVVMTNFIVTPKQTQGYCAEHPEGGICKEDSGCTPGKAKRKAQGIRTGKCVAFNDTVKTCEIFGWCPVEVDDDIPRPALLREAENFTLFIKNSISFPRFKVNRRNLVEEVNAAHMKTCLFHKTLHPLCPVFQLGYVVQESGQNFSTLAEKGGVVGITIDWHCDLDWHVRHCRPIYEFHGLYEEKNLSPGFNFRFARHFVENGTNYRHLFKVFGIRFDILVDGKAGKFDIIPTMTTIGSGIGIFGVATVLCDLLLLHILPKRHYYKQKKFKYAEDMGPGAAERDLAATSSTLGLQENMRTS
Sequence of UniProt Q16774 (whole entry, unmodified, looked up): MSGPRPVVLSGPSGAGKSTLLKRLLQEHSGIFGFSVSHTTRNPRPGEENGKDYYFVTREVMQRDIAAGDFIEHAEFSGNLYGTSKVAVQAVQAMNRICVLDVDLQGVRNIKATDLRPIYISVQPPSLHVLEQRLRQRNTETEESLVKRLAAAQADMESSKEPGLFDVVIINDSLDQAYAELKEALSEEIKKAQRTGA
Sequence of UniProt Q16853 (whole entry, looked up): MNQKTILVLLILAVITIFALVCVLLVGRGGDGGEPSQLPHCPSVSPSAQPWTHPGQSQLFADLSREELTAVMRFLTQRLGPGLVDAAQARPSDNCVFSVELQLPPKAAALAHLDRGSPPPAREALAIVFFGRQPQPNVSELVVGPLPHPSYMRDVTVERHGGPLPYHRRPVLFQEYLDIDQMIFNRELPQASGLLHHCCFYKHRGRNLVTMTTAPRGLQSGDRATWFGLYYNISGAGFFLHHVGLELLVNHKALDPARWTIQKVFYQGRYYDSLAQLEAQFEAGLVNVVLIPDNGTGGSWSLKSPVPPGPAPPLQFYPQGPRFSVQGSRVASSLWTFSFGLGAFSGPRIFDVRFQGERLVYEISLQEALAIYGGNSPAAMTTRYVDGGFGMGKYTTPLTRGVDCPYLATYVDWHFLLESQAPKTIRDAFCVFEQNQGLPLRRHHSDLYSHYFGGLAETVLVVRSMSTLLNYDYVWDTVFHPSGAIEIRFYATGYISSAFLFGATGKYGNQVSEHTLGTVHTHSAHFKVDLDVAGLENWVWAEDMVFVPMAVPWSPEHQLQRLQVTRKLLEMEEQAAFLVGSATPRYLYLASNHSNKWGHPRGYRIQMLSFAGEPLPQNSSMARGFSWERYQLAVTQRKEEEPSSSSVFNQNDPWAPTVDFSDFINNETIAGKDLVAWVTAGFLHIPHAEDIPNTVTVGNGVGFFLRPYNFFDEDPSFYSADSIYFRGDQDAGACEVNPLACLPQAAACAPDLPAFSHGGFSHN
Sequence of UniProt Q62351 (whole entry, looked up): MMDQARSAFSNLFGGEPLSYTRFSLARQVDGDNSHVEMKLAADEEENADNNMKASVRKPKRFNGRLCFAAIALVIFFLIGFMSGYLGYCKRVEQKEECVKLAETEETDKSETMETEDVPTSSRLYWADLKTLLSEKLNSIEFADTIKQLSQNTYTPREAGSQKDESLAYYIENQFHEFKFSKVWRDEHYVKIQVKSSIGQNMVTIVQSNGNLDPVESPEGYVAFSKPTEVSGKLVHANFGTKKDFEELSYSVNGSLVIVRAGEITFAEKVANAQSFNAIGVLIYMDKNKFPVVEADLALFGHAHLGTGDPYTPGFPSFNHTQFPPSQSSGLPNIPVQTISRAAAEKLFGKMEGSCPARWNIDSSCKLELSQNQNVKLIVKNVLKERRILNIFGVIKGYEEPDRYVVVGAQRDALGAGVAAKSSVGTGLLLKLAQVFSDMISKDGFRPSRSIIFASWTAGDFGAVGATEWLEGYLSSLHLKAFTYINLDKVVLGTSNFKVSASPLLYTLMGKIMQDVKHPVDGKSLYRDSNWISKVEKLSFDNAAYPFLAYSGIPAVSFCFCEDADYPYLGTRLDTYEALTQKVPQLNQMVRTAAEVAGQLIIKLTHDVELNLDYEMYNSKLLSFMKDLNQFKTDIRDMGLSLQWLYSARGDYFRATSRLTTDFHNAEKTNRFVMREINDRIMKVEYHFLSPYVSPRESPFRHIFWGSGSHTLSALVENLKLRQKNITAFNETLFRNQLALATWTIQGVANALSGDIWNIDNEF
Sequence of UniProt Q59S66 (whole entry, looked up): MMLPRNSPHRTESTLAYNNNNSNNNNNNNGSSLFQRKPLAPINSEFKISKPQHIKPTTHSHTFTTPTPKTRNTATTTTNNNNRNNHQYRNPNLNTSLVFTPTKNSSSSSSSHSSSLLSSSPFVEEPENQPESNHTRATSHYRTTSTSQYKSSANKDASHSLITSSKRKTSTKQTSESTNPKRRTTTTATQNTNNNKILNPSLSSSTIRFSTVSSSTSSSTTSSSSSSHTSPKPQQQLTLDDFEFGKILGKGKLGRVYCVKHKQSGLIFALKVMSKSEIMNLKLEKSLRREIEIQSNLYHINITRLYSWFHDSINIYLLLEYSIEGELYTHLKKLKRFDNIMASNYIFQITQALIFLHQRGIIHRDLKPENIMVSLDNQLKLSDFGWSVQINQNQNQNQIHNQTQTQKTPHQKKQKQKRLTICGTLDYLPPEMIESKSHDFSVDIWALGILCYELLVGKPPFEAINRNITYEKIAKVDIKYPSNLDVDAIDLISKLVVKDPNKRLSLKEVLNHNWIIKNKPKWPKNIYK
Sequence of UniProt P18031 (whole entry, unmodified, looked up): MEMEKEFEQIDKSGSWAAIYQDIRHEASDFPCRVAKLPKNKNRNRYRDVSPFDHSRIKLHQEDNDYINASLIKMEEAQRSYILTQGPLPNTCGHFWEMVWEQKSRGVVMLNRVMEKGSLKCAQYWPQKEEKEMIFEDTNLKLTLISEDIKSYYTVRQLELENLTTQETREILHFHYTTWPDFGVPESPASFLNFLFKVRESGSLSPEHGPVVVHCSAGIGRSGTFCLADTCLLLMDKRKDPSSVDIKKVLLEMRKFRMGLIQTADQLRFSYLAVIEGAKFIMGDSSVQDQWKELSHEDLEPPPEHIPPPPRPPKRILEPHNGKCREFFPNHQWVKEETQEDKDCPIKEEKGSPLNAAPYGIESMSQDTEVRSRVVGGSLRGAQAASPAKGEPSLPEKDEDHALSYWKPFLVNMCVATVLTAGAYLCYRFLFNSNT
Sequence of UniProt Q13224 (whole entry, looked up): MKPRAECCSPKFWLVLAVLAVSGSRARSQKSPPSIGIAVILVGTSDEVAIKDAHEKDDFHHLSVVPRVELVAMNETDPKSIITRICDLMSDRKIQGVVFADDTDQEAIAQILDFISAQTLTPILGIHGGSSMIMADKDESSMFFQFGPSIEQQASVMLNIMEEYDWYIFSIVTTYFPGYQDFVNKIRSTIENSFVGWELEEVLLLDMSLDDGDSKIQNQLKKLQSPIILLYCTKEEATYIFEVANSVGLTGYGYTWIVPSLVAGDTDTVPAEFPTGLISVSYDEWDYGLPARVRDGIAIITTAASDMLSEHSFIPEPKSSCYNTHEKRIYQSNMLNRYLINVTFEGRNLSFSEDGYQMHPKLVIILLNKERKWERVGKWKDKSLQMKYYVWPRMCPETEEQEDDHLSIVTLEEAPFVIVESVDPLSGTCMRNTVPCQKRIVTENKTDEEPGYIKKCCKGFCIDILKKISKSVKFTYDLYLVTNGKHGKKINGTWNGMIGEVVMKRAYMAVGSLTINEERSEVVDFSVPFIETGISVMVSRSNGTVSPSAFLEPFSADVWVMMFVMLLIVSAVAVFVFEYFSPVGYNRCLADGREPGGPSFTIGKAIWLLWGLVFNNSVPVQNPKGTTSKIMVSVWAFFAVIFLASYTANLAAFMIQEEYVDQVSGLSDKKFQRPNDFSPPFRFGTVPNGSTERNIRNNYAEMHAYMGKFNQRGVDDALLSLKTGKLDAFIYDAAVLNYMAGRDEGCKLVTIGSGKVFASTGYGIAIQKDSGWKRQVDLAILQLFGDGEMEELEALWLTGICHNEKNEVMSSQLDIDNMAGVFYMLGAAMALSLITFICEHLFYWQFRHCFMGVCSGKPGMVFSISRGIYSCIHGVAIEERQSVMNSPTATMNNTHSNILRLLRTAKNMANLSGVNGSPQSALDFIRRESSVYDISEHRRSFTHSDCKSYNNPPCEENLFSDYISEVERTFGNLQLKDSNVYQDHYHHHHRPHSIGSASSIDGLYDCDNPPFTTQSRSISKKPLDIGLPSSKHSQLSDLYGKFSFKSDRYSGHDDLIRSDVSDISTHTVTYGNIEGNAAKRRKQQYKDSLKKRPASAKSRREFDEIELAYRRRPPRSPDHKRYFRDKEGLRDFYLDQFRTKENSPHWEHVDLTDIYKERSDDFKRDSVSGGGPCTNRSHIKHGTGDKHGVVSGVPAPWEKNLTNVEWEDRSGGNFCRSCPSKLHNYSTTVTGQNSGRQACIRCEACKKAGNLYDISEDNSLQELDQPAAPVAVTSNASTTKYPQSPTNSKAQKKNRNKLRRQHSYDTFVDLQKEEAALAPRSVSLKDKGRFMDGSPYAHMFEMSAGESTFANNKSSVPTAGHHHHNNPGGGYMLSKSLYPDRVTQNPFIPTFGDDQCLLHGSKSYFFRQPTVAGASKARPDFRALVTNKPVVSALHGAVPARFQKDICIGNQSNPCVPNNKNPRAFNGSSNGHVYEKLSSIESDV
Sequence of UniProt P02776 (whole entry, looked up): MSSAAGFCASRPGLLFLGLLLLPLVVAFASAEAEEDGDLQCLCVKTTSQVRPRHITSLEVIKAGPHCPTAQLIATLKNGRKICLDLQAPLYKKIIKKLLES

CC[C@H](C)[C@@H]1NC(=O)[C@H](Cc2ccc(-c3ccccc3)cc2)NC(=O)[C@H](CC(C)C)NC(=O)[C@@H]2[C@H]3CC[C@H](C3)N2C(=O)[C@@H](NC(=O)[C@H](CCCNC(=N)N)NC(=O)[C@H](CCCNC(=N)N)NC(C)=O)CSSC[C@@H](C(=O)N[C@@H](CCCNC(=N)N)C(=O)N[C@@H](CCCNC(=N)N)C(N)=O)NC(=O)[C@H](C(C)C)NC(=O)[C@@H]2CCCN2C(=O)[C@H](CC(=O)O)NC(=O)[C@H](Cc2ccc(O)cc2)NC(=O)[C@H](CO)NC1=O
lowest bound protein concentration (GTPase KRas, GDP-bound (KRAS, Homo sapiens, UniProt P01116, G12D); affinity selection mass spectrometry; mixture library 3, with: protein titration up to 2.5 µM; lower is stronger binding): 0.31 to 0.62 µM

OC[C@H]1O[C@@H](Oc2cc3c(O)cc(O)cc3[o+]c2-c2ccc(O)cc2)[C@H](O)[C@@H](O)[C@@H]1O
binding entropy change (Albumin (ALB, Homo sapiens, UniProt P02768); van't Hoff analysis; concentration not given): 0.01 kJ/(mol·K)

Nc1ncnc2c1ncn2[C@@H]1O[C@H](COP(=O)(O)CP(=O)(O)OP(=O)(O)O)[C@@H](O)[C@H]1O
calcium influx (P2X purinoceptor 1 (P2RX1, Homo sapiens, UniProt P51575, K136A); calcium influx; 10 nM; reference: ionomycin response): 4.38% and 0% and 4.29%

Nc1nc2c(ncn2[C@@H]2O[C@H](COP(=O)(O)O)[C@@H](O)[C@H]2O)c(=O)[nH]1
reaction rate (GUK1 (Homo sapiens, UniProt Q16774, E72A); enzyme activity, NADH-coupled; 62.5 µM): -0.659 s⁻¹ and -0.142 s⁻¹ and 0.642 s⁻¹

O=c1cc(-c2ccc([N+](=O)[O-])cc2)[nH]c2c(-c3ccc(Cl)cc3)c(Cc3ccccc3)nn12
melting temperature shift (GFM1 (Homo sapiens, UniProt Q96RP9); thermal stability, binder, thermal proteome profiling; RD, cell lysate; 50 µM, 0.5% DMSO; reference: DMSO vehicle): 2.6 °C

N[C@H](CNC(=O)c1ccc(-c2cccc(F)c2F)s1)C(=O)O
Hill slope (Glutamate receptor ionotropic, NMDA 1, with GluN2A (Grin1, Rattus norvegicus, UniProt P35439); with: glutamate 300 µM): 1.48

CCCCCCOC(C)=O
relative fluorescence (uncharacterized protein (Spodoptera exigua, UniProt F1CEY0); binding, competitor, fluorescence displacement; 20 µM, pH 7.4, with: 1-NPN 20 µM; reference: 1-NPN alone): 70.5%

COc1ccc(-c2cc(OCC(=O)N(C)Cc3cccnc3C)nc(-n3nc(C)cc3C)n2)cc1
trimming of SIINFEKL precursors (LNPEP (Homo sapiens, UniProt Q9UIQ6); peptide trimming, inhibitor, HPLC; up to 50 µM, 1 h, 37 °C, with: 10 µM peptide, 60 nM IRAP): no effect

O=C(Nc1ccc(-c2ccccc2)cc1)[C@H]1O[C@H](O[C@@H]2[C@@H](OCc3ccc4ccccc4c3)[C@H](O[C@H]3O[C@H](CNS(=O)(=O)O)[C@@H](OCc4ccc5ccccc5c4)C[C@H]3NS(=O)(=O)O)[C@@H](NS(=O)(=O)O)C[C@H]2NS(=O)(=O)O)[C@H](OCc2ccc3ccccc3c2)[C@@H](NS(=O)(=O)O)[C@@H]1OCc1ccc2ccccc2c1
selectivity ratio (Platelet factor 4 (Homo sapiens, UniProt P02776); reference: IC50 PF4 over IC50 heparanase): > 300 fold

C[C@H](CCC(C)(C)O)[C@H]1CC[C@H]2[C@@H]3CC=C4C[C@@](C)(O)CC[C@]4(C)[C@H]3CC[C@]12C
current potentiation (Glutamate NMDA receptor; GRIN1/GRIN2B (GRIN1/GRIN2B, Homo sapiens, UniProt Q05586+Q13224); ion current, positive allosteric modulator, two-electrode voltage clamp; Xenopus oocytes; 10 µM, wild type, with: 100 µM glutamate and glycine; reference: absence of compound): 208 ± 8.6%

NC/C(=C\F)COc1cccc(Cn2c(=S)[nH]c(=O)c3[nH]cnc32)c1
inhibition (AOC3 (Homo sapiens, UniProt Q16853); H2O2 production, Amplex Red; 0.3333 µM, recombinant human enzyme): 101% and 99.2%

c1coc(-c2n[nH]cc2-c2ccnc3ccccc23)c1
log2 fold change (Aurora kinase (IPL1, Candida albicans, UniProt Q59S66); kinase binding, MIB/MS competition; Candida albicans lysate; 10 µM; reference: DMSO, negative = stronger binding): -0.25

COC(=O)c1cc(C(C)=NNc2nc(-c3ccc4c(c3)OCCCO4)cs2)ccc1O
Vmax (PTPN1 (Homo sapiens, UniProt P18031); enzyme activity, inhibitor; 1.5 µM): 6250 ΔRFU/min

CC[C@@H](C)[C@@H](NC(=O)[C@@H](Cc1ccc(O)cc1)NC(=O)[C@H]1CCCN1C(=O)[C@@H](CCCNC(=N)N)NC(=O)[C@H](N)Cc1c[nH]cn1)C(=O)N[C@H](C)C(=O)N[C@H](Cc1c[nH]cn1)C(=O)N[C@H](CCCNC(=N)N)C(=O)N[C@@H](C(=O)N[C@H](Cc1ccc(O)cc1)C(=O)N[C@H](CO)C(=O)N[C@H](Cc1ccccc1)C(N)=O)C(C)C
surface expression (Transferrin receptor protein 1 (Tfrc, Mus musculus, UniProt Q62351); flow cytometry; MC-38; 48 h, unit not given; reference: 0 h): 0.479 and 0.501

Cc1cc(-c2ccnc3[nH]cc(F)c23)cc(F)c1[C@@]1(O)[C@H](C)CN(C2CCS(=O)(=O)CC2)C[C@@H]1C
probe labelling inhibition (JAK1 (Homo sapiens, UniProt P23458); ATP/ADP probe binding, KiNativ; HEK293T lysate; 10 µM, Lys1 peptide domain 2): 32.5%

A few entries again:
N[C@H](CNC(=O)c1ccc(-c2cccc(F)c2F)s1)C(=O)O
Hill slope (Glutamate receptor ionotropic, NMDA 1, with GluN2A (Grin1, Rattus norvegicus, UniProt P35439); with: glutamate 300 µM): 1.48
